Published values collected from several papers.
Protocols differ between the studies behind these lines. Several values in a cell are separate wells, animals, samples, runs or records. ± marks the error that the study gave.

With `CC(C)(O/N=C(\C(=O)N[C@H]1CN2CC(C(=O)NCCN3C(=O)c4cc(O)c(O)cc4C3=O)=C(C(=O)O)N2C1=O)c1nc(N)sc1Cl)C(=O)O` the plasma concentration was 678 ng/mL (CD-1 mouse, plasma; subcutaneous, 50 mg/kg, 24 h).
`CN(C)C(=O)c1cc2cnc(Nc3ccc(N4CCNCC4)cn3)nc2n1C1CCCC1` has a total concentration of 23.5 nmol/g and 29.1 nmol/g and 33.5 nmol/g and 33.9 nmol/g (LC-MS/MS; human, enhancing tumour tissue; oral, 600 mg once daily for 14 days, 4 to 8 h after last dose).
For `CNCc1ccc(-c2cc(-c3nc(-c4ccc(S(=O)(=O)C(C)C)cc4)cnc3N)on2)cc1`, the CL was 40.7 mL/min/kg (mouse BALB/c female, plasma; intravenous, 6.0 mg/kg, from AUC(0-inf)).
For `COc1cccc(N2CCN(C3=Nc4c(F)cccc4[C@H](CC(=O)O)N3c3cc(C(F)(F)F)ccc3OC)CC2)c1`, “volume of distribution” read 79 ± 42.4 L (UHPLC-MS/MS; healthy women, plasma; intravenous infusion, 960 mg single dose, 60 min infusion, HPβCD formulation).
For `CN[C@H](CC(C)C)C(=O)N[C@H]1C(=O)N[C@@H](CC(N)=O)C(=O)N[C@H]2C(=O)N[C@H]3C(=O)N[C@H](C(=O)N[C@H](C(=O)O)c4cc(O)cc(O)c4-c4cc3ccc4O)[C@H](O)c3ccc(c(Cl)c3)Oc3cc2cc(c3O[C@@H]2O[C@H](CO)[C@@H](O)[C@H](O)[C@H]2O[C@H]2C[C@](C)(N)[C@H](O)[C@H](C)O2)Oc2ccc(cc2Cl)[C@H]1O`, “serum total protein” read 6 ± 0.2 g/dL (BALB/c mouse, serum; iv, dose not given).
The CL/F of `O=C(/C=C/c1ccc(O)c2c1[C@H](C(=O)O)[C@@H](c1ccc(O)c(O)c1)O2)O[C@H](Cc1ccc(O)c(O)c1)C(=O)O` is reported as 209 ± 132 mL/min/kg (UPLC-MS/MS; Wistar rat, microcirculation dysfunction model, plasma; oral, 100 mg/kg Salvia miltiorrhiza stem-leaf extract FT).
For `CCOc1ccc(Cc2cc([C@]34OC[C@](CO)(O3)[C@@H](O)[C@H](O)[C@H]4O)ccc2Cl)cc1`, the renal clearance was 0.54 mL/min (human, type 2 diabetes, severe renal impairment; oral, 15 mg).
With `Cc1nc2cccc(OCC(C)(C)C(=O)NC(C)C)c2c(N)c1C(=O)O` the Tmax was 7.5 h (Sprague-Dawley rat both sexes, plasma; dietary, 100 mg/kg/day, day 90).
With `O=C(O)Cc1ccccc1Nc1c(Cl)cccc1Cl` the remaining compound was 33 ± 4.9% (human liver microsomes; 30 min, together with: NADPH).
`Nc1ccc(S(=O)(=O)N2CCN(CC(=O)N[C@@H](Cc3cc(F)cc(F)c3)c3nc4ccccc4c(=O)n3-c3ccc(S(=O)(=O)N4CCOCC4)cc3)C(=O)C2)cc1` has a clearance of 60 mL/min/kg (Sprague-Dawley rats; intravenous, 2 mg/kg).
With `CCCC[C@@H]1NC(=O)[C@@H](NC(=O)[C@H](CCC(=O)O)NC(=O)CNC(=O)CN2CCN(CC(=O)O)CCN(CC(=O)O)CCN(CC(=O)O)CC2)CCCCNC(=O)C[C@@H](C(N)=O)NC(=O)[C@H](C(C)C)NC(=O)[C@@H]2CCCN2C(=O)[C@H](CCCNC(=N)N)NC(=O)CNC(=O)[C@H](Cc2c[nH]c3ccccc23)NC(=O)[C@H](CCCNC(=N)N)NC(=O)[C@@H](Cc2ccccc2)NC(=O)[C@H](Cc2c[nH]cn2)NC(=O)[C@H](CCC(=O)O)NC1=O` [indium-111 labelled] the tissue uptake was 0.41 ± 0.09 %ID/g (normal C57 mice, liver; intravenous, 0.037 MBq, 2 h).
The clearance of `COc1cc2ncnc(Nc3ccc(F)c(Cl)c3)c2cc1OCCCN1CCOCC1` is reported as 38.3 mL/min/kg (ICR mice, male, plasma; intravenous, 5 mg/kg, cassette dosing).
Under “median serum concentration”, `C[C@]12CC[C@@H]3c4ccc(O)cc4CC[C@H]3[C@@H]1C[C@@H](O)[C@@H]2O` is recorded as 0.0066 ng/mL (GC-MS; breast cancer women on NSAI, serum; vaginal, 0.03 mg daily, 8 h, day 28).
`CCCOc1ccc([C@H]2CNC(=O)N2c2ccc3[nH]cnc3c2)cc1` has an effective half-life of 2.16 h (human volunteers fasted, plasma; oral solution, 100 mg single dose, day 1, geometric mean).
`O=C1N=C(N2CCOCC2)CN1c1ccc(Cl)cc1` has a terminal half-life of 1.55 h (beagle dog, both sexes, plasma; oral, 30 mg/kg, tablets, fasted, day 0).
For `CC[C@@H](C)[C@@H]1NC(=O)[C@H]([C@@H](C)CC)NC(=O)[C@@H](Cc2c[nH]c3ccccc23)NC(=O)CCSCC[C@@H](C(=O)N(C)[C@H](CO)CCCN)NC(=O)[C@H](CC(N)=O)NC1=O`, “steady-state placental transfer” read roughly 11% (perfused human term placental cotyledon; 1.2 µM, 1 to 120 min, 36.5 °C, maternal to fetal, together with: antipyrine 531 µM).
Under “plasma protein binding”, `liraglutide` is recorded as 99.5% (equilibrium dialysis; human plasma 5% diluted; 10 nM, 4 to 5 h, pH 7.4, 37 °C, inner-outer ratio 100:1).
`CC(=O)N1CCC[C@H]1C(=O)N[C@@H](CCCNC(=N)N)C(=O)N[C@H](C(=O)N[C@@H](CCCNC(=N)N)C(=O)N[C@H](C(=O)N[C@@H](CCCNC(=N)N)C(=O)N[C@H](C(=O)N[C@@H](CC(=O)O)C(=O)N1CCC[C@H]1C(=O)N[C@@H](CCCNC(=N)N)C(=O)N[C@H](C(=O)N[C@@H](CC(=O)O)C(=O)N[C@H](C(=O)N[C@@H](CCCNC(=N)N)C(=O)N[C@H](C(=O)N[C@@H](CC(=O)O)C(=O)N1CCC[C@H]1C(N)=O)C(C)C)C(C)C)C(C)C)C(C)C)C(C)C)C(C)C` gave a viscosity of 1250 ± 31.2 Pa·s (rotational rheometry; 1% w/v aqueous solution; shear rate range 1-1000 s^-1).
For `COc1cc(/C=C/C(=O)CC(=O)/C=C/c2ccc(O)c(OC)c2)ccc1O`, “brain uptake ratio” read 5.19 (I-125 label; C57BL/6J mouse, olfactory lobes; intranasal vs intraperitoneal, 10 µg/mouse IN, 100 µg/mouse IP, 4 h; baseline: intranasal over intraperitoneal).
For `CC1=C2C[C@H]3[C@@H](CC[C@@H]4C[C@H](NS(C)(=O)=O)CC[C@@]43C)[C@@H]2CC[C@@]2(C1)O[C@@H]1C[C@H](C)CN[C@H]1[C@H]2C`, the AUC(0-24) was 12800 ng·h/mL (patients, plasma; oral, 180 mg daily, day 22, cycle 1).
For `CC[C@H](C)[C@H](NC(=O)[C@H](Cc1ccccc1)NC(=O)[C@H](CC(=O)O)NC(=O)[C@H](CCCNC(=N)N)NC(=O)[C@H](C)NC(=O)[C@H](C)NC(=O)[C@H](CC(C)C)NC(=O)[C@H](CC(N)=O)NC(=O)[C@H](CC(=O)O)NC(=O)[C@H](CC(C)C)NC(=O)[C@@H](NC(=O)[C@@H](NC(=O)[C@H](CC(N)=O)NC(=O)[C@H](CCSC)NC(=O)[C@H](CCC(=O)O)NC(=O)[C@H](CC(=O)O)NC(=O)[C@H](CO)NC(=O)[C@H](Cc1ccccc1)NC(=O)[C@H](CO)NC(=O)CNC(=O)[C@H](CC(=O)O)NC(=O)CNC(=O)[C@@H](N)Cc1c[nH]cn1)[C@@H](C)O)[C@@H](C)CC)C(=O)N[C@@H](CC(N)=O)C(=O)N[C@@H](Cc1c[nH]c2ccccc12)C(=O)N[C@@H](CC(C)C)C(=O)N[C@H](C(=O)N[C@@H](CCC(N)=O)C(=O)N[C@H](C(=O)N[C@@H](CCCCN)C(=O)N[C@H](C(=O)N[C@H](C(=O)N[C@@H](CC(=O)O)C(=O)O)[C@@H](C)O)[C@@H](C)CC)[C@@H](C)O)[C@@H](C)CC`, the V/F reduction was 24% (Japanese patients, moderate renal impairment; subcutaneous, 0.05 mg/kg; baseline: normal renal function).
`COC(=O)c1ccc2c(c1)NC(=O)/C2=C(\Nc1ccc(N(C)C(=O)CN2CCN(C)CC2)cc1)c1ccccc1` gave an AUC(0-tz) of 193 ng·h/mL (human, Child-Pugh A hepatic impairment, plasma; oral, 100 mg, single dose, fed; adjusted geometric mean).
`Nc1cc(F)ccc1NC(=O)c1ccc(CNC(=O)/C=C/c2cccnc2)cc1` has a renal clearance of 31.3 mL/min (Japanese patients, urine; oral, 30 mg, cycle 1 day 1, arithmetic mean).
`O=C(N[C@@H](Cn1ccnc1)c1ccc(Cl)cc1Cl)c1ccc(-c2nnc(-c3ccc(F)c(F)c3)o2)cc1` has a brain concentration of 8 ± 4 µM (Balb/c mouse, brain; oral, 25 mg/kg, 4 h).
For `CNC(=O)c1cc(Oc2ccc(NC(=O)Nc3ccc(Cl)c(C(F)(F)F)c3)c(F)c2)ccn1`, “accumulation ratio of Cmax” read 24 (healthy male volunteers, plasma; topical ocular, 0.75 mg twice daily; baseline: last dose over first dose).
The Cmax of `CCCC[C@H](NC(C)=O)C(=O)N[C@H]1CCC(=O)NC[C@@H](C(=O)N[C@@H](Cc2c[nH]c3ccccc23)C(N)=O)NC(=O)[C@H](CCCNC(=N)N)NC(=O)[C@@H](Cc2ccccc2)NC(=O)[C@H](Cc2c[nH]cn2)NC1=O` is reported as 359 ng/mL (beagle dog, male, plasma; subcutaneous, 8.0 mg/kg daily, day 14).
The oral bioavailability of `Cc1nc(Nc2ncc(C(=O)Nc3c(C)cccc3Cl)s2)cc(N2CCN(CCO)CC2)n1` is reported as 13.2% (male C57BL/6 mouse wild type, plasma; oral, 10 mg/kg).
Under “remaining parent compound”, `CCc1cn([C@@H]2O[C@H](CO)[C@@H](O)[C@H]2O)c2ncnc(C)c12` is recorded as 100% (mouse liver microsomes; 0 min, together with: NADPH).
With `C=CC(=O)N1CCC([C@@H]2CCNc3c(C(N)=O)c(-c4ccc(Oc5ccccc5)cc4)nn32)CC1` the AUC(0-8h) was 1150 ng·h/mL (Chinese patients, plasma; oral, 320 mg once daily, week 2 day 1, steady state).
`NC(=O)CN[C@@H]1CCCNC1` has a pKa1 of 5.13 (capillary electrophoresis-MS; water).
`CNC(=O)c1c(C)oc2cc(Oc3ncnc4cc(OC)c(OC)cc34)ccc12` — result for “participants with headache”: 37.5% (human, moderate hepatic impairment; oral, 2 mg).
The AUC(0-7 h) of `O=C(CCCCCCC(=O)Nc1ccccc1)NO` is reported as 13.9 µM·h (patients, serum; oral, 800 mg, cycle -1, alone).
The brain/serum ratio of `des-acyl ghrelin (human)` is reported as 8.53 µL/g (mouse, wild type, thalamus; intravenous, 10 min).
`CC(C)NC[C@@H](C(=O)N1CCN(c2ncnc3c2[C@H](C)C[C@H]3O)CC1)c1ccc(Cl)cc1` gave a t1/2 of 75.4 h (human, Severe hepatic function (Child-Pugh), plasma; oral, 100 mg single dose, arithmetic mean).
`CC(C)=CCC[C@](C)(O[C@@H]1O[C@H](CO)[C@@H](O)[C@H](O)[C@H]1O)[C@H]1CC[C@]2(C)[C@@H]1[C@H](O)C[C@@H]1[C@@]3(C)CC[C@H](O)C(C)(C)[C@@H]3[C@@H](O[C@@H]3O[C@H](CO)[C@@H](O)[C@H](O)[C@H]3O)C[C@]12C` gave a CL/F of 742 ± 163 mL/min/kg (Sprague Dawley rat, male, plasma; oral, 25 mg/kg, pure ginsenoside mixture in water).
For `Cc1cc(Nc2ncc(Cl)c(Nc3ccccc3S(=O)(=O)C(C)C)n2)c(OC(C)C)cc1C1CCNCC1`, the Kp was 34.7 and 64.2 and 22.9 (human, brain tumour patients, enhancing tumour over plasma; oral, 450 mg/day, 6 to 8 h after dose 10, total drug).
For `Cc1ccnc2c1NC(=O)c1cccnc1N2C1CC1`, the AUC(0-8 h) was 769 ± 235 ng·h/mL (olive baboon (Papio anubis), non-pregnant, serum; oral, 5 mg/kg, solution, single dose).
`COc1ccc(-c2ccc3c(N4CCOC[C@@H]4C)nc(N4CCOC[C@@H]4C)nc3n2)cc1CO`: “half-life at steady state” 1.7 h (human, plasma; oral, 20 mg twice daily, oral solution).
